Experimental data collected from several papers.
Every numbered part comes from another study and shows a few of its results, in no order.
Chain of UniProt Q56UN5 (whole entry, looked up): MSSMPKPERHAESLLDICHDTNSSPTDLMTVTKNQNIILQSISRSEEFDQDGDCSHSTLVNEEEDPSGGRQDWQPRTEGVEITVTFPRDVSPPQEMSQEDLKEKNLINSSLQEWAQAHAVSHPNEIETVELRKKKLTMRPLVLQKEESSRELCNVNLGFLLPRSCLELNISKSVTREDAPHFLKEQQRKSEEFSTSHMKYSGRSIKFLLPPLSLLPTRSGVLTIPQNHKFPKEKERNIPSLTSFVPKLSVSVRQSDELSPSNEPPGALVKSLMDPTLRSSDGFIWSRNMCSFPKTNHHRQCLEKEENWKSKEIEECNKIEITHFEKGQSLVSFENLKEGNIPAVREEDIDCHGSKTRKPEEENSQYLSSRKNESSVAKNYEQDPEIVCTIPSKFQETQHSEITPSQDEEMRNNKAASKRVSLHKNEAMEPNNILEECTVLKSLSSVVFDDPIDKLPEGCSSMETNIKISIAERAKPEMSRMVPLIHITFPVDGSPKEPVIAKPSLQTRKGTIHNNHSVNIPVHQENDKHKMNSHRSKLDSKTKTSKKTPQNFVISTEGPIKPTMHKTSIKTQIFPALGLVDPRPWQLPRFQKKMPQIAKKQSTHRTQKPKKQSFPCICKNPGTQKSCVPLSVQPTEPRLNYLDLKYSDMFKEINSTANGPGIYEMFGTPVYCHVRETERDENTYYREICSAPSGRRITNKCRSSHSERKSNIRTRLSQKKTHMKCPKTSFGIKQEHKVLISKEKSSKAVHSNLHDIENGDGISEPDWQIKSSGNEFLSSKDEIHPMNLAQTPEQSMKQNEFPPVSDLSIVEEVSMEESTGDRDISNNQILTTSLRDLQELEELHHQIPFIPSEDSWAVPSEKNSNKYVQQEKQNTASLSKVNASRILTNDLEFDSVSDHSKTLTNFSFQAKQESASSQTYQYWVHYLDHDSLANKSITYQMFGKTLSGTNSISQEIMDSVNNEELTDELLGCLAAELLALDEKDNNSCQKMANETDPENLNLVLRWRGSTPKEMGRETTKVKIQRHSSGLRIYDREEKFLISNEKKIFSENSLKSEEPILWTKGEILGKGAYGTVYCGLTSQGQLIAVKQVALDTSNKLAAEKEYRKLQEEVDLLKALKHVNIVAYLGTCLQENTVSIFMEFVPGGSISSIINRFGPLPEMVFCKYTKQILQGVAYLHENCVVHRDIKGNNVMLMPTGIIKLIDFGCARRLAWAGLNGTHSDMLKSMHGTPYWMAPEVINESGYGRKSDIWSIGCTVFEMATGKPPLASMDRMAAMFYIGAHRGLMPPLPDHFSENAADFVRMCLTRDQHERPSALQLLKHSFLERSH
Chain of UniProt P45985 (whole entry, looked up): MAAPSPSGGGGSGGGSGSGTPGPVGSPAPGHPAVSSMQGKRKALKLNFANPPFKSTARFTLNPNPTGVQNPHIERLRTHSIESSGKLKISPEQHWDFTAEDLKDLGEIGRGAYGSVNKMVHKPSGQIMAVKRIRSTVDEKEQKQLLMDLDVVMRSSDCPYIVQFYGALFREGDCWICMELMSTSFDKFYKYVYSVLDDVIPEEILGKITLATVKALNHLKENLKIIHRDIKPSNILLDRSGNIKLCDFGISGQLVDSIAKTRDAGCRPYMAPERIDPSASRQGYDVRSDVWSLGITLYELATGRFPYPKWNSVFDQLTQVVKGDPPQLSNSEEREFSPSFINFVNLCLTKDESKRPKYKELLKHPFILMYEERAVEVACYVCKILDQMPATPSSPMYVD
Chain of UniProt Q15349 (whole entry, looked up): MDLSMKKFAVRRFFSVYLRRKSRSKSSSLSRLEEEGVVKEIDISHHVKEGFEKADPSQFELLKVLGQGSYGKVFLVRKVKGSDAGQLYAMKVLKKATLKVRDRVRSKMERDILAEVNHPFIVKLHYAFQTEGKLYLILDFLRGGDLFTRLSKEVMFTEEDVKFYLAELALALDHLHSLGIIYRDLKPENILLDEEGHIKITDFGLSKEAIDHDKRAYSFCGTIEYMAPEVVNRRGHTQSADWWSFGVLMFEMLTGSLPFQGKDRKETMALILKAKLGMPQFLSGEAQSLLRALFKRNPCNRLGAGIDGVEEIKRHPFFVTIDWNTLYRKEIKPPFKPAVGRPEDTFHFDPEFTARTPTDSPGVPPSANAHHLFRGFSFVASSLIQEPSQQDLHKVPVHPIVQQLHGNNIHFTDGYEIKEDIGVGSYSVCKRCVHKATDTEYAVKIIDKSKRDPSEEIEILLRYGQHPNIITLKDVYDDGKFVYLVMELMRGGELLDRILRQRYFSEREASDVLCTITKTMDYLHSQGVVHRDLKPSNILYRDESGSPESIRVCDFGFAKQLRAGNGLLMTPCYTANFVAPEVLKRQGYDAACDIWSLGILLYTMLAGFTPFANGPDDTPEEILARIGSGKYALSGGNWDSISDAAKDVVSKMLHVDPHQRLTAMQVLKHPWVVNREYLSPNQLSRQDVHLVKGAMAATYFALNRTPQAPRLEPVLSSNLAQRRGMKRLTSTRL
Chain of UniProt Q00537 (whole entry, looked up): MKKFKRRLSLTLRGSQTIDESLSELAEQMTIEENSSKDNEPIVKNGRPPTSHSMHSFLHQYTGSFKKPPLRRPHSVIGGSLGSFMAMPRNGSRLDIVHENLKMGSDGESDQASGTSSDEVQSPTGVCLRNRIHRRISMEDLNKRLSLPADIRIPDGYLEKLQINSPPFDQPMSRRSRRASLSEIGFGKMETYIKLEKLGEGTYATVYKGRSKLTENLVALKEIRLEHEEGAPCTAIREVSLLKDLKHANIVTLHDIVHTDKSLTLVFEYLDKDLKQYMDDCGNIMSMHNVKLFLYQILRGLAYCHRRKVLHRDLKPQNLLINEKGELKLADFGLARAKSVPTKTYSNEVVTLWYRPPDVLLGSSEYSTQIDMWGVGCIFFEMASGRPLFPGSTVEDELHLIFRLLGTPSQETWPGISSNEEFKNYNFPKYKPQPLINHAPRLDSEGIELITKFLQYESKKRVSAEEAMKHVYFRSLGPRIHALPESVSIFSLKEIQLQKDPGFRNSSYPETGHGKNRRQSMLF
Chain of UniProt P53350 (whole entry, looked up): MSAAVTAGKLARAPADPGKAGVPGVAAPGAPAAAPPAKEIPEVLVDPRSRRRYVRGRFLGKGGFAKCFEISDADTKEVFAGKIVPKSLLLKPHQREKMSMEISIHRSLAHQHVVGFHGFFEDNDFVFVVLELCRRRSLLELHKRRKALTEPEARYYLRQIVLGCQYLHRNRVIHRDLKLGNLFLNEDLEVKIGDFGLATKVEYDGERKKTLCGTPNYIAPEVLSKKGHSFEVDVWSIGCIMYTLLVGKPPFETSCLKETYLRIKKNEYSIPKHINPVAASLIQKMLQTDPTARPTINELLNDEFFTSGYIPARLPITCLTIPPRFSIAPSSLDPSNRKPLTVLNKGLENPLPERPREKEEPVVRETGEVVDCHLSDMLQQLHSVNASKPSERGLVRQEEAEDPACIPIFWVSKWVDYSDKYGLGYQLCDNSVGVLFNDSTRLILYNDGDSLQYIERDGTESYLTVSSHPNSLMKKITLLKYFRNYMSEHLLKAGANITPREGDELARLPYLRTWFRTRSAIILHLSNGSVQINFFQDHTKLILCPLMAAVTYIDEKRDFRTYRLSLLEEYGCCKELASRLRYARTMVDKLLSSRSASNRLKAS

Block 1
Target: Probable WRKY transcription factor 11, DNA-binding domain (WRKY11, Arabidopsis thaliana, UniProt Q9SV15, residues 228-325)
Chain of UniProt Q9SV15 (228-325, looked up): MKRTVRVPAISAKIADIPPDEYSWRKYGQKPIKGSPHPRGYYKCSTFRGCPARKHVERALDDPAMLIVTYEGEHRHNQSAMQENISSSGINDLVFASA
Method: DNA-protein interaction ELISA
Molecule type: double-stranded DNA, one strand shown
Medium: in vitro, bacterial lysate
Tested at: not given
Setting: whole dsDNA probe, crude lysate protein
Baseline: highest signal in screen
Direction: higher = stronger binding
For `AAAAAACATGTCGCACCTGTACTAACAAAA`, the relative absorbance was 16.4 % of maximum.
`AAAAAAAACGTCTGGCGGGGTTGAGAAAAA` has a relative absorbance of 16.4 % of maximum.
For `AAAAAATTAGGACCATCCCCACTAGGAAAA`, the relative absorbance was 18.4 % of maximum.
The relative absorbance of `AAAAAATATTCCGCTTTTGGCTGAATAAAA` is reported as 17 % of maximum.
The relative absorbance of `AAAAAATGTTGTTGCTGTTGGTCCTAAAAA` is reported as 18.4 % of maximum.
The relative absorbance of `AAAAAACGTATTGATGTCTATTTCAAAAAA` is reported as 14.7 % of maximum.
The relative absorbance of `AAAAAATACTGGCTGTCTCGTTCACAAAAA` is reported as 16.1 % of maximum.
The relative absorbance of `AAAAAAACGCTATATATTGGTGCTAGAAAA` is reported as 17.3 % of maximum.

Block 2
Target: Mitogen-activated protein kinase kinase kinase 5 (MAP3K5, Homo sapiens, UniProt Q99683)
Read-out: enzyme activity
Action: inhibitor
Tested at: 0.5 µM
Baseline: control
`COc1ccc(C(=O)Nc2sc3c(c2C(N)=O)CCCC3)cc1OC` has a remaining activity of 94.8%.
`NCCNc1ncc(C(N)=O)c(Nc2cccc(C(F)(F)F)c2)n1` gave a remaining activity of 107%.
The remaining activity of `O=C1NC(=O)C(c2cn(CCCO)c3ncccc23)=C1c1cnccn1` is reported as 88.9%.
For `COc1cc2nccc(Oc3ccc(NC(=S)NC(=O)c4ccccc4C)cc3)c2cc1OC`, the remaining activity was 106%.
`CNC(=O)c1cc(Oc2ccc(NC(=O)Nc3ccc(Cl)c(C(F)(F)F)c3)cc2)ccn1` gave a remaining activity of 103%.
With `N#CC(C#N)=C(N)/C(C#N)=C/c1ccc(O)cc1` the remaining activity was 103%.
The remaining activity of `O=C(O)c1ccc2c3c1cccc3c(=O)n1c3ccccc3nc21` is reported as 102%.
With `CC(C)[C@H](CO)Nc1nc(Nc2cc(N)cc(Cl)c2)c2ncn(C(C)C)c2n1` the remaining activity was 95.6%.
With `Cc1cccc(-c2[nH]c(C(C)(C)C)nc2-c2ccc3c(c2)OCO3)n1` the remaining activity was 103%.
For `O=C(Nc1cccc(Nc2cc(Nc3cccc(C(F)(F)F)c3)ncn2)c1)C1CC1`, the remaining activity was 104%.
With `Cc1ccc(NC(=O)c2ccc(CN3CCN(C)CC3)cc2)cc1Nc1nc(-c2cccnc2)cs1` the remaining activity was 95%.
`Cc1ccc(Nc2nccc(N(C)c3ccc4c(C)n(C)nc4c3)n2)cc1S(N)(=O)=O` gave a remaining activity of 102%.
With `Nc1[nH]nc2nc3ccccc3nc12` the remaining activity was 103%.

Block 3
Target: FOXO3, forkhead domain (mouse, UniProt Q9WVH4, residues 31-263)
Chain of UniProt Q9WVH4 (31-263, looked up): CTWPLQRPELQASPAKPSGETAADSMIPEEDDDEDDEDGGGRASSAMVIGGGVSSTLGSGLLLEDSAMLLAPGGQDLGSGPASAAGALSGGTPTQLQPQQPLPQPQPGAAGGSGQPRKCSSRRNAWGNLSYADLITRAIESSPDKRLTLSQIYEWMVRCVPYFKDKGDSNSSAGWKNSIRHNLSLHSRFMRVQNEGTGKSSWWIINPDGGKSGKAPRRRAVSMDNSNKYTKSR
Method: protein-binding microarray
Molecule type: hairpin DNA
Medium: in vitro
Tested at: not given
Setting: whole hairpin DNA, median over replicate spots
Baseline: not given
Direction: higher = stronger binding
`GAGGCCCTGTAACCAACGCCTCCTGGCGTTGGTTACAGGGCCTCACACTC` has a median fluorescence of 4190 a.u.
`GAGGCCATGCAAACAAGGCCTCCTGGCCTTGTTTGCATGGCCTCACACTC` has a median fluorescence of 4770 a.u.
`GAGGCCATCGAACCAACGCCTCCTGGCGTTGGTTCGATGGCCTCACACTC (5mC at 35)` gave a median fluorescence of 4290 a.u.
The median fluorescence of `GAGGCCATGTAACCGACGCCTCCTGGCGTCGGTTACATGGCCTCACACTC` is reported as 4290 a.u.
The median fluorescence of `GAGGCCATGTAAACCACGCCTCCTGGCGTGGTTTACATGGCCTCACACTC (5mC at 15)` is reported as 4160 a.u.
The median fluorescence of `GAGGCCATGCGAACAACGCCTCCTGGCGTTGTTCGCATGGCCTCACACTC (5mC at 34)` is reported as 4470 a.u.
The median fluorescence of `GAGGCCATGTAAACTACGCCTCCTGGCGTAGTTTACATGGCCTCACACTC` is reported as 4020 a.u.
With `GAGGCCATGTACACAACGCCTCCTGGCGTTGTGTACATGGCCTCACACTC (5mC at 12)` the median fluorescence was 4600 a.u.

Block 4
SMILES: CN(C)CC#Cc1ccc(OCCCc2sc(N3CCc4cccc(C(=O)Nc5nc6ccccc6s5)c4C3)nc2C(=O)O)c(F)c1
Read-out: cell-free assay
Method: competition with immobilised ligand
Tested at: 1 µM
The remaining binding was 100% (Dual specificity mitogen-activated protein kinase kinase 4 (MAP2K4, Homo sapiens, UniProt P45985)).
For Serine/threonine-protein kinase PLK1 (PLK1, Homo sapiens, UniProt P53350): remaining binding read 100%.
It gave 99% for remaining binding (Cyclin-dependent kinase 17 (CDK17, Homo sapiens, UniProt Q00537)).
Dual specificity tyrosine-phosphorylation-regulated kinase 1B (DYRK1B, Homo sapiens, UniProt Q9Y463) — remaining binding: 87%.
For Ribosomal protein S6 kinase alpha-2, N-terminal kinase domain (RPS6KA2, Homo sapiens, UniProt Q15349): remaining binding read 100%.
Mitogen-activated protein kinase kinase kinase kinase 2 (MAP4K2, Homo sapiens, UniProt Q12851) — remaining binding: 100%.
It gave 95% for remaining binding (Mitogen-activated protein kinase kinase kinase 19 (MAP3K19, Homo sapiens, UniProt Q56UN5)).
Epidermal growth factor receptor (EGFR, Homo sapiens, UniProt P00533, L858R) — remaining binding: 89%.
Wee1-like protein kinase (WEE1, Homo sapiens, UniProt P30291) — remaining binding: 100%.

For quick reference, copied from above (block 4):
It gave 99% for remaining binding (Cyclin-dependent kinase 17 (CDK17, Homo sapiens, UniProt Q00537)).
Dual specificity tyrosine-phosphorylation-regulated kinase 1B (DYRK1B, Homo sapiens, UniProt Q9Y463) — remaining binding: 87%.
For Ribosomal protein S6 kinase alpha-2, N-terminal kinase domain (RPS6KA2, Homo sapiens, UniProt Q15349): remaining binding read 100%.
Mitogen-activated protein kinase kinase kinase kinase 2 (MAP4K2, Homo sapiens, UniProt Q12851) — remaining binding: 100%.
It gave 95% for remaining binding (Mitogen-activated protein kinase kinase kinase 19 (MAP3K19, Homo sapiens, UniProt Q56UN5)).
Epidermal growth factor receptor (EGFR, Homo sapiens, UniProt P00533, L858R) — remaining binding: 89%.
